Experimental data pooled from the literature.
Compare with care: the assays were run in different laboratories. ± gives the spread as reported.
Aminopeptidase N: Aminopeptidase N (Neisseria meningitidis, UniProt Q9JYV4)
Oprd1: Delta-type opioid receptor (Oprd1, Rattus norvegicus, UniProt P33533)
Sequence of UniProt P33533 (whole entry, looked up): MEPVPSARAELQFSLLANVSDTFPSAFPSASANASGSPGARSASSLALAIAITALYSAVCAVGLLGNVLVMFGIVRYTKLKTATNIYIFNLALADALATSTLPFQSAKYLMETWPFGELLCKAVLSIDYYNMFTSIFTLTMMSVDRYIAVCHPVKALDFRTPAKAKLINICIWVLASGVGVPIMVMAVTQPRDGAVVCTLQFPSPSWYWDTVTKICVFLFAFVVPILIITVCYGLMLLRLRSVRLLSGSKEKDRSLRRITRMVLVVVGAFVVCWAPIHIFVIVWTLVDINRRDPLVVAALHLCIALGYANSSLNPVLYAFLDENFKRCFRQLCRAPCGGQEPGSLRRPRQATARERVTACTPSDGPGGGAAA
CPL: CPL (Toxoplasma gondii, UniProt Q6DMN0)
Sequence of UniProt Q62968 (whole entry, looked up): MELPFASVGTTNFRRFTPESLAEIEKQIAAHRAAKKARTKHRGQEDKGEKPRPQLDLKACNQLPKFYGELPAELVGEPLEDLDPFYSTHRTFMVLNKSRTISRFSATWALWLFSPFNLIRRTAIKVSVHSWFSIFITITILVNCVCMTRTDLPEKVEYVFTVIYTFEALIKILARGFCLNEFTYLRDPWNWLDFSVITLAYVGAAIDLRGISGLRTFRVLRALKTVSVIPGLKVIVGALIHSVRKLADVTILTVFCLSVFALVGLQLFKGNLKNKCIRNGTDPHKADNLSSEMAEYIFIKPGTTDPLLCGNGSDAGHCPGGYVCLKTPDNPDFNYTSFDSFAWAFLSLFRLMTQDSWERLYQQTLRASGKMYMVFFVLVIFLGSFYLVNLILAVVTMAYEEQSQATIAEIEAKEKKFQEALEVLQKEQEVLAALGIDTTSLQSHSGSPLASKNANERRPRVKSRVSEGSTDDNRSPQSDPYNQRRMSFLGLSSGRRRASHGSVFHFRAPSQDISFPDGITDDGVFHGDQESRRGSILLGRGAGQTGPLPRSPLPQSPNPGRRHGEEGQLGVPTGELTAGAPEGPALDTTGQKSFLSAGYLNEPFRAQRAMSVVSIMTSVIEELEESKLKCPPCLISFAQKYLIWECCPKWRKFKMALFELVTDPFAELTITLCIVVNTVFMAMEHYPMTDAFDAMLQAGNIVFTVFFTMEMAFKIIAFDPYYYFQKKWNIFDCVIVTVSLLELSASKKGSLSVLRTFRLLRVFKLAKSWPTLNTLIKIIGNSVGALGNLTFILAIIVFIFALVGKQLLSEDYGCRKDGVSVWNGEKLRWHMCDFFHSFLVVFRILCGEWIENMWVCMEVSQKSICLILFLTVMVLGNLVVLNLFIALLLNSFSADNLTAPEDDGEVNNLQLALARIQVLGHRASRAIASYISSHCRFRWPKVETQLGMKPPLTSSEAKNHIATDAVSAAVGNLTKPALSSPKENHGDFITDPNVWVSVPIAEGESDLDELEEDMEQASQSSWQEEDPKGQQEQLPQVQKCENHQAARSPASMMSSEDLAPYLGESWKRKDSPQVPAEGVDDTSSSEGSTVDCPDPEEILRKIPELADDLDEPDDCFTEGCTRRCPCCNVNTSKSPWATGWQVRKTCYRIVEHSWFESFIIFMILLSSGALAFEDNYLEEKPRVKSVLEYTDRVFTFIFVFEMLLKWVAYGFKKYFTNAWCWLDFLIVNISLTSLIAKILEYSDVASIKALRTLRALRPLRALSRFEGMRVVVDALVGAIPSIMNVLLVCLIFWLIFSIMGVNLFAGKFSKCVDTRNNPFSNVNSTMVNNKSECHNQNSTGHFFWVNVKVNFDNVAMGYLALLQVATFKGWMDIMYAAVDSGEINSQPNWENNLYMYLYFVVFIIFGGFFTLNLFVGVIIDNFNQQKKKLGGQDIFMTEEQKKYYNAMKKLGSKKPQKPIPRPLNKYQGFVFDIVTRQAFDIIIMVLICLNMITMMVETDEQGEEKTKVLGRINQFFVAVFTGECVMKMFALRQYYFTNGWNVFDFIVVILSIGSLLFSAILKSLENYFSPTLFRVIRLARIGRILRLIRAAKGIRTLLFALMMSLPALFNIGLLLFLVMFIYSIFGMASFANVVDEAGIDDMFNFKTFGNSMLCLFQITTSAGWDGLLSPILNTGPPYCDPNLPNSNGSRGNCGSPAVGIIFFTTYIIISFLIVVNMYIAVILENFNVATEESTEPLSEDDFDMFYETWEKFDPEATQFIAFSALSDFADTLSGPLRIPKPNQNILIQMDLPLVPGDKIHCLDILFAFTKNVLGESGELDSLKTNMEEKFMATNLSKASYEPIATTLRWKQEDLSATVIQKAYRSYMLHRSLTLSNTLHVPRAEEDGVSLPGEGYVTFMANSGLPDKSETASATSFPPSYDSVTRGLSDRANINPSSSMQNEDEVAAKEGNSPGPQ
Sequence of UniProt P04062 (whole entry, unmodified, looked up): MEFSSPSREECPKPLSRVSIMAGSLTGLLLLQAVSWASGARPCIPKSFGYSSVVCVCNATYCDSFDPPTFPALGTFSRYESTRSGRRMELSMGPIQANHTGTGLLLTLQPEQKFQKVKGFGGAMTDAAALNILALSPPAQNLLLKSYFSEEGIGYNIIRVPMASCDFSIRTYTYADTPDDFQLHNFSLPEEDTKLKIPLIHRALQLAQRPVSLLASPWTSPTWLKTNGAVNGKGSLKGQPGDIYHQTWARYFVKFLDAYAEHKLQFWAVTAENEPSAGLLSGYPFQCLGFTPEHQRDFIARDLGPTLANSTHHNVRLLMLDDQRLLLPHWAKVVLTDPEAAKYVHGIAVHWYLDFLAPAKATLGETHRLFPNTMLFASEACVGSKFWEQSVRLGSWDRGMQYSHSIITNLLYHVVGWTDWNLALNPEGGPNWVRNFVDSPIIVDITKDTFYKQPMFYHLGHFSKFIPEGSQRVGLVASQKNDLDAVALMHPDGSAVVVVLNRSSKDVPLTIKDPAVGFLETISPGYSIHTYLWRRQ
Sequence of UniProt Q9W4Y2 (whole entry, looked up): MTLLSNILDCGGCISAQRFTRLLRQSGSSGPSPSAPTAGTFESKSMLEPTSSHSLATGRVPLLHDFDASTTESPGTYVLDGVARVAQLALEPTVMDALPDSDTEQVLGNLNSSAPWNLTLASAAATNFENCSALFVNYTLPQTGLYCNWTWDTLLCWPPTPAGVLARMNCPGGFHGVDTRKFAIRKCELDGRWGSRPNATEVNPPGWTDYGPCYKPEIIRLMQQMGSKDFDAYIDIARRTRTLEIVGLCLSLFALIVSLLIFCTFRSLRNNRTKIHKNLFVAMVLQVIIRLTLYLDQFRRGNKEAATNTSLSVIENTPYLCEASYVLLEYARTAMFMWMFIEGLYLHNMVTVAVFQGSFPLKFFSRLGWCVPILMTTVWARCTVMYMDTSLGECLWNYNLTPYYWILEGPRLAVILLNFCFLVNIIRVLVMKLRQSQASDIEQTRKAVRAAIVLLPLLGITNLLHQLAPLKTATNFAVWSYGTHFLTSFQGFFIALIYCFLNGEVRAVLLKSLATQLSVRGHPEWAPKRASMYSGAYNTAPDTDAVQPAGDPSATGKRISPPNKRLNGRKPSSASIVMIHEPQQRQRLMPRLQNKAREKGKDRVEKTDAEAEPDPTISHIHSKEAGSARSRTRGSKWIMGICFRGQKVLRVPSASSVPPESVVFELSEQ
Sequence of UniProt P00691 (whole entry, looked up): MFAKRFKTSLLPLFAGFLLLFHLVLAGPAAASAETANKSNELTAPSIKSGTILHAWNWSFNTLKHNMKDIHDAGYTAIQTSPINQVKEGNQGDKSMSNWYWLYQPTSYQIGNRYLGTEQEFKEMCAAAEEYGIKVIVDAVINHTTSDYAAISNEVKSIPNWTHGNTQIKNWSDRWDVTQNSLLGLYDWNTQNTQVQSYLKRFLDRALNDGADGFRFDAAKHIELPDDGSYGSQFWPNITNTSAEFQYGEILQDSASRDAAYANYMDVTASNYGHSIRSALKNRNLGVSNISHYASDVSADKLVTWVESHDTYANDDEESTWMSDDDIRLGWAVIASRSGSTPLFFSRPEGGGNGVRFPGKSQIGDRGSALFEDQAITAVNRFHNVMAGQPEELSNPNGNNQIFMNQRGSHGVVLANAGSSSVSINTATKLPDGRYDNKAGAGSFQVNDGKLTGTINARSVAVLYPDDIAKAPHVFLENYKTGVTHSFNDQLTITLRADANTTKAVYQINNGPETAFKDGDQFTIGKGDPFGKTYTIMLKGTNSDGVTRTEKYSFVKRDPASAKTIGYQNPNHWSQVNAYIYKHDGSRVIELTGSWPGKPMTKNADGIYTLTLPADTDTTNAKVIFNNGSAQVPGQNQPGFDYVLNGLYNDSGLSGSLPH
Sequence of UniProt P21554 (whole entry, looked up): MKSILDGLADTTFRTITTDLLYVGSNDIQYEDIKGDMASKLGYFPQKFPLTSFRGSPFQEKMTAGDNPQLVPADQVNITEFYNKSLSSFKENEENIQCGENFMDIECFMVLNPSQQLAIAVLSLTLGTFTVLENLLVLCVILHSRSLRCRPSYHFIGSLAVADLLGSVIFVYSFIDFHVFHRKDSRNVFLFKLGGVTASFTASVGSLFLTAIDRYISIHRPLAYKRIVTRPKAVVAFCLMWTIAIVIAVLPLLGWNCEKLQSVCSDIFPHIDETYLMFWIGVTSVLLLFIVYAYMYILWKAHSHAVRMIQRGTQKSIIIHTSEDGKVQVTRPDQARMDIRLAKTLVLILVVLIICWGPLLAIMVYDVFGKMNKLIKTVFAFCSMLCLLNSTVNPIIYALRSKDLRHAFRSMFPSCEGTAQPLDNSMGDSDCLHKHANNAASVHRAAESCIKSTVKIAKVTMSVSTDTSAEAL
Sequence of UniProt Q9H008 (whole entry, looked up): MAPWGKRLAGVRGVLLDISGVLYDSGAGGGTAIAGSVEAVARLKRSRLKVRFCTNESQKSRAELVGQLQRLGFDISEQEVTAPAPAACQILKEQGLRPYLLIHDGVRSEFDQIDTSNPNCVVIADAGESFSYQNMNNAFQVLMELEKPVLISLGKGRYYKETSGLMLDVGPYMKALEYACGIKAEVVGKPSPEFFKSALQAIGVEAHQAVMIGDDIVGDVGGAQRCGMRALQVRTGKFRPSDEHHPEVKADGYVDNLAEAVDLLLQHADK

CS(C)(=O)=Nc1ccc(-c2ccc(-c3nc4cc(O[C@@H]5CO[C@H]6[C@@H]5OC[C@H]6O)[nH]c4cc3F)cc2)cc1
EC150 (PRKAB2/PRKAA1, with gamma2 subunit (Homo sapiens, UniProt O43741+Q13131); enzyme activity, activator; 60 min, 50% above basal activity, added: ATP 50 µM): 0.876 nM

CN1CCCCC1Cn1c2ccccc2c2cc(C(=O)c3cccc4ccccc34)ccc21 (stereo not shown)
Emax (CNR1 (Homo sapiens, UniProt P21554); cAMP inhibition, agonist, BRET; HEK293 expressing CNR1; added: forskolin; reference: forskolin alone): 51.8%

CCCCCCCCP(=O)(Oc1ccccc1)O[C@@H]1O[C@H](CO)[C@@H](O)[C@H](O)[C@H]1F (stereo partly shown)
kinact/Ki (GBA1 (Homo sapiens, UniProt P04062); enzyme activity, irreversible inhibitor; pH 5.5, 37 °C, added: 2,4-dinitrophenyl beta-D-glucopyranoside): 2670 M⁻¹ s⁻¹

O=C(Nc1cccnn1)N1CCC(=Cc2cccc(Oc3ccc(C(F)(F)F)cn3)c2)CC1
ED50 (Faah (Mus musculus, UniProt O08914); enzyme activity, inhibitor, ex vivo; mouse, liver; oral, 8 h): 2 µg/kg

NC(=O)Cc1cc(=O)oc2cc(NC(=O)[C@@H](N)CCO)ccc12
Km (Aminopeptidase N; enzyme activity, substrate; pH 7.5, 37 °C): 79.2 ± 6.9 µM

O=C(O)COc1ccc(Cl)cc1
lower corner frequency (Chloride channel protein (Torpedo marmorata, UniProt P21564, C212S); macroscopic current, noise analysis; 20 mM, -140 mV): 5.1 Hz

CC[C@H](C)[C@H](NC(=O)[C@H](CC(C)C)NC(=O)[C@H](CCC(=O)O)NC(=O)[C@H](CO)NC(=O)[C@@H](N)CC(N)=O)C(=O)N[C@@H](CC(N)=O)C(=O)N[C@@H](CO)C(=O)N[C@@H](CC(C)C)C(=O)N[C@@H](CC(C)C)C(=O)N[C@@H](CO)C(=O)N[C@@H](CC(C)C)C(=O)N1CCC[C@H]1C(=O)N[C@@H](CCCCN)C(=O)N[C@@H](CC(N)=O)C(=O)N[C@@H](CCSC)C(=O)N[C@@H](CC(N)=O)C(=O)N[C@@H](CC(=O)O)C(=O)N[C@@H](C)C(N)=O
response attenuation (PDF receptor (Pdfr, Drosophila melanogaster, UniProt Q9W4Y2); cAMP level, agonist, Epac FRET; Drosophila, isolated brain s-LNv neurons; 1 µM, 180 s): 1.2 ± 9.7%

CC[C@@H](C)[C@@H](NC(=O)[C@@H](CC(N)=O)NC(=O)[C@@H](CC(N)=O)NC(=O)[C@H](N)CCCNC(N)=O)C(=O)N1C[C@@H](n2cc([C]34[CH]5[CH]6[CH]7[CH]3[Fe]6754389%10[CH]4[CH]3[CH]8[CH]9[CH]4%10)nn2)C[C@H]1C(=O)N[C@@H](Cc1csc2ccccc12)C(=O)N[C@H](CO)C(N)=O (stereo partly shown)
binding free energy (env (Human immunodeficiency virus type 1 group M subtype B, UniProt P35961); ITC; pH 7.4, 25 °C): -8.9 ± 2.9 kcal/mol

Cc1nc(C)c(C(=O)Nc2ccc(F)c(-c3nc4ncc(-c5ccccn5)cn4n3)c2)o1
fold resistance (Proteasome subunits (Trypanosoma cruzi, UniProt Q4CU77+Q4D8U7, I29M); chymotrypsin-like activity; reference: wild type): ≥ 300 fold

O=c1c(O)c(-c2cc(O)ccc2O)oc2cc(O)cc(O)c12
inhibition (Cholinesterase (BCHE, Homo sapiens, UniProt P06276); enzyme activity, inhibitor, Ellman; 1000 µg/mL): 82.2%

Nc1nc2c([C@@H]3O[C@@H]4COP(=O)(O)O[C@H]5[C@@H](O)[C@H](n6cnc7c(=O)[nH]c(N)nc76)O[C@@H]5COP(=O)(O)O[C@H]4[C@H]3O)snc2c(=O)[nH]1
dissociation rate constant k-3 (rocR (Pseudomonas aeruginosa, UniProt Q9HX69); substrate; 10 µM, second binding orientation, added: 100 nM enzyme): 0.135 ± 0.007 s⁻¹

CC[C@H](C)[C@H]1C(=O)O[C@H](C(C)C)C(=O)N(C)[C@@H]([C@@H](C)CC)C(=O)O[C@H](C(C)C)C(=O)N(C)[C@@H]([C@@H](C)CC)C(=O)O[C@H](C(C)C)C(=O)N1C
thermal stabilization temperature (HSP90AB1 (Homo sapiens, UniProt P08238); CETSA; MCF7; 20 µM, 1 h): > 61 °C

CCN(Cc1ccccc1)C(=O)CCc1nc(CN2CCN(C(=O)Cc3ccc(OC)c(OC)c3)CC2)no1
inactivation V1/2 (Scn10a (Rattus norvegicus, UniProt Q62968); sodium current, whole-cell patch clamp; rat DRG neurons; 10 µM): -62.8 mV

CCc1cc(Cc2ccccc2)cc2c1NCCC2NC(=O)C(N)Cc1c(C)cc(O)cc1C (stereo not shown)
maximal stimulation (Oprd1; GTPγS binding, agonist; C6 cells expressing DOR; reference: DPDPE at 10 µM): 45%

CC(C)P(=[Se])(NP(=[Se])(C(C)C)C(C)C)C(C)C
maximum emission wavelength (Alpha-amylase (Bacillus subtilis, UniProt P00691); tryptophan fluorescence, fluorescence quenching; 0.20 mg/mL, 298 K): 353 nm

CC(C)CCN(Cc1ccccc1C(F)(F)F)c1nc(C#N)nc(N2CCOCC2)n1
selectivity ratio (CPL; enzyme activity, inhibitor; reference: human over Toxoplasma IC50): 0.4

N[C@@H](Cc1ccccc1)P(=O)(O)O
ΔΔG binding (PAL1 (Petroselinum crispum, UniProt P24481, Y110F); isothermal titration calorimetry; concentration not given; reference: wild type minus Y110F): -0.7 kcal/mol

COC(=O)C1C(OC(c2ccc(Cl)cc2)c2ccc(Cl)cc2)CC2CCC1N2C (single isomer, unassigned)
Ki (Adra1b (Rattus norvegicus, UniProt P15823); binding, radioligand displacement; rat liver; inactive if below 75% at 10000 nM, added: [3H]prazosin): inactive

CC(C)CCN(Cc1ccccn1)c1nc(C#N)nc(N2CCOCC2)n1
selectivity ratio (CPL; enzyme activity, inhibitor; reference: human over Toxoplasma IC50): 0.4

C=CC[C@H](N)C(=O)Nc1ccc2c(CC(N)=O)cc(=O)oc2c1
relative hydrolysis rate (Aminopeptidase N; enzyme activity, substrate; 3 µM, pH 7.5, 37 °C; reference: L-hArg-ACC): 20 to 40%

Cc1cc(O)cc(C)c1CC(N)C(=O)NC1CCNc2c(C(=O)Nc3ccccc3)cc(Cc3ccccc3)cc21 (stereo not shown)
Ke (Oprd1; GTPγS binding, antagonist; added: SNC80): 31.5 nM

CC(C)C[C@H](NC(=O)[C@H](C)NC(=O)[C@H](C)NC(=O)[C@H](C)NC(=O)[C@H](C)NC(=O)[C@@H](NC(=O)[C@H](CC(C)C)NC(=O)[C@H](CCCCN)NC(=O)[C@H](CCC(=O)O)NC(=O)[C@@H](NC(=O)[C@H](CO)NC(=O)CN)C(C)C)[C@@H](C)O)C(=O)N[C@@H](CCC(N)=O)C(=O)N[C@@H](CCCNC(=N)N)C(=O)N[C@@H](CC(C)C)C(=O)N[C@@H](CCCCN)C(=O)N[C@@H](CC(N)=O)C(=O)N[C@@H](CCC(=O)O)C(=O)N[C@@H](CCCNC(=N)N)C(=O)N[C@@H](Cc1c[nH]cn1)C(=O)N[C@@H](CCC(=O)O)C(=O)N[C@@H](CCC(=O)O)C(=O)N[C@@H](C)C(=O)N[C@@H](CCC(=O)O)C(=O)N[C@@H](CC(C)C)C(=O)N[C@@H](CCC(=O)O)C(=O)N[C@@H](CCCNC(=N)N)C(=O)N[C@@H](CC(C)C)C(=O)N[C@@H](CCCCN)C(=O)N[C@@H](CO)C(=O)N[C@@H](CCC(=O)O)C(=O)N[C@@H](Cc1ccc(O)cc1)C(=O)O
kon (Plasminogen (PLG, Homo sapiens, UniProt P00747, C188G/E240D/L256Y); binding, SPR; pH 7.4): 261000 M⁻¹ s⁻¹

CC(C)(C)n1ccc(C(=O)N2CCN(c3nc4ccccc4s3)CC2)c1
kmax (hh, C-terminal autoprocessing domain (Drosophila melanogaster, UniProt Q02936); inhibitor; 10 µM): 0.00048 s⁻¹

C=C(C)C(=O)Oc1ccc(C(C)(C)c2ccc(OC(=O)C(=C)C)cc2)cc1
maximum inhibition (Androgen receptor (AR, Homo sapiens, UniProt P10275); reporter gene, antagonist; CHO; added: 0.1 nM R1881; reference: R1881 alone): 89%

OC[C@@H]1[C@@H](O)[C@H](O)[C@@H](O)[C@@H]2N[C@H]12
time to full inhibition (GBA1 (Homo sapiens, UniProt P04062, R534H); enzyme activity; concentration not given, higher concentrations, added: 2,4-DNP-β-Glc): ≤ 30 s

CC(=O)N[C@H]1C(O)O[C@H](CO)[C@@H](O[C@@H]2O[C@H](CO)[C@H](O)[C@H](O)[C@H]2O)[C@@H]1O (stereo partly shown)
–ΔG (Galectin-3 (LGALS3, Homo sapiens, UniProt P17931); binding, isothermal titration calorimetry; full-length protein): 6.14 kcal/mol

CC(=O)/C(C#N)=C/c1cccc(C(N)=O)c1
binding free energy (Genome polyprotein, 3C protease (Human enterovirus D68, UniProt Q68T42, C1641Y/I1565V/I1594T/R1603K/Y1579H); ITC; enterovirus D68; 25 °C, added: DTT 10 mM): -6.5 kcal/mol

NC(=O)Cc1cc(=O)oc2cc(NC(=O)[C@@H](N)CCC3CCCCC3)ccc12
Km (Aminopeptidase N; enzyme activity, substrate; pH 7.5, 37 °C): 41.4 ± 1.3 µM

COC(=O)c1ccccc1CN(CCC(C)C)c1nc(C#N)nc(N2CCOCC2)n1
selectivity ratio (CPL; enzyme activity, inhibitor; reference: human over Toxoplasma IC50): 0.7

CC(=O)NC(Cc1ccc(Br)c(Cl)c1)C(=O)N[C@@H](C)C(=O)N1CCC[C@H]1C(=O)N1CCC[C@H]1C(=O)N[C@@H](CCC(=O)O)C(=O)N[C@@H](Cc1c[nH]cn1)C(=O)N[C@@H](CO)C(=O)N[C@H](C(=O)N[C@@H](C)C(N)=O)[C@@H](C)OP(=O)(O)O (stereo partly shown)
inhibition (LCK (Homo sapiens, UniProt P06239); enzyme activity, inhibitor; 10 µM): 0.64%

CC(=O)NCC(=O)N[C@@H](C)C(=O)N[C@@H](CCCCNP(=O)(O)O)C(=O)NCC(=O)NCC(N)=O
first-order rate constant (Phospholysine phosphohistidine inorganic pyrophosphate phosphatase (LHPP, Homo sapiens, UniProt Q9H008); substrate; 100 µM, pH 7.8): 0.000429 s⁻¹

Excerpt of the above:
CC(=O)NC(Cc1ccc(Br)c(Cl)c1)C(=O)N[C@@H](C)C(=O)N1CCC[C@H]1C(=O)N1CCC[C@H]1C(=O)N[C@@H](CCC(=O)O)C(=O)N[C@@H](Cc1c[nH]cn1)C(=O)N[C@@H](CO)C(=O)N[C@H](C(=O)N[C@@H](C)C(N)=O)[C@@H](C)OP(=O)(O)O (stereo partly shown)
inhibition (LCK (Homo sapiens, UniProt P06239); enzyme activity, inhibitor; 10 µM): 0.64%

NC(=O)Cc1cc(=O)oc2cc(NC(=O)[C@@H](N)CCC3CCCCC3)ccc12
Km (Aminopeptidase N; enzyme activity, substrate; pH 7.5, 37 °C): 41.4 ± 1.3 µM

CS(C)(=O)=Nc1ccc(-c2ccc(-c3nc4cc(O[C@@H]5CO[C@H]6[C@@H]5OC[C@H]6O)[nH]c4cc3F)cc2)cc1
EC150 (PRKAB2/PRKAA1, with gamma2 subunit (Homo sapiens, UniProt O43741+Q13131); enzyme activity, activator; 60 min, 50% above basal activity, added: ATP 50 µM): 0.876 nM

CCN(Cc1ccccc1)C(=O)CCc1nc(CN2CCN(C(=O)Cc3ccc(OC)c(OC)c3)CC2)no1
inactivation V1/2 (Scn10a (Rattus norvegicus, UniProt Q62968); sodium current, whole-cell patch clamp; rat DRG neurons; 10 µM): -62.8 mV

CC[C@H](C)[C@H]1C(=O)O[C@H](C(C)C)C(=O)N(C)[C@@H]([C@@H](C)CC)C(=O)O[C@H](C(C)C)C(=O)N(C)[C@@H]([C@@H](C)CC)C(=O)O[C@H](C(C)C)C(=O)N1C
thermal stabilization temperature (HSP90AB1 (Homo sapiens, UniProt P08238); CETSA; MCF7; 20 µM, 1 h): > 61 °C
